Published values from different studies.
Each line is one published result; not all experiments were run side by side. ± gives the spread as reported.
Organism: Plasmodium falciparum

Structure (SMILES) = CCC1=C(C)C(=CNC23CC4CC(CC(C4)C2)C3)N=C1c1ccc[nH]1; test = parasite growth, SYBR Green I fluorescence; test system = D6, chloroquine-sensitive; IC50 = 5.5 nM
Structure (SMILES) = O=C(C1CCN(c2nnnn2-c2ccccc2C(F)(F)F)CC1)N1CCCc2ccccc21; test = parasite growth, SYBR Green; test system = 3D7; conditions = 72 h, blood stage; IC50 = 4300 nM
Structure (SMILES) = CCN(CC)C/C=C\CNc1ccnc2cc(Cl)ccc12; test = parasite growth; test system = Dd2; IC50 = 262 ± 30 nM
Structure (SMILES) = COC1(C)CC2C=CC3C(C)C=CC=CC(C)OC(=O)C(C)C(=O)C(Cl)(Cl)C(=O)C3C2C(C)C1O (stereo not drawn); test = parasite growth, ELISA; test system = 3D7; conditions = blood stage; IC50 = > 7810 nM
Structure (SMILES) = COc1cc2nc(N3CCN(C)CC3)nc(NC3CCN(C)CC3)c2cc1OC; test = parasite growth, SYBR Green I; test system = 3D7; conditions = 3 days; IC50 = > 300 nM
Structure (SMILES) = c1ccc(CCCNc2ncnc3cc(OCC4CCN(CCNc5ccnc6ccccc56)CC4)ccc23)cc1; test = parasite growth; test system = NF54; conditions = blood stage; IC50 = 71 nM
Structure (SMILES) = N#Cc1c(-c2cccs2)[n+]([O-])c2ccc(C(F)(F)F)cc2[n+]1[O-]; test = parasite growth, [3H]hypoxanthine incorporation; test system = 3D7 chloroquine-sensitive; IC50 = 890 ± 360 nM
Structure (SMILES) = CC(C)(C)OC(=O)/C=C/c1ccc(O)c(C(=O)C(CCC(=O)OC(C)(C)C)CCC(=O)OC(C)(C)C)c1; test = parasite growth, 3H-hypoxanthine incorporation; test system = NF54; IC50 = 820 nM
Structure (SMILES) = CN(C)CCCOc1ccc2cc1Oc1ccc(cc1)CC1c3c(cc(OCCCN(C)C)c4c3Oc3cc5c(cc3O4)CCN(C)C5C2)CCN1C (stereo not drawn); test = gametocyte viability, flow cytometry; test system = NF54, stage II-V gametocytes; IC50 = ~1000 nM
Structure (SMILES) = C#Cc1cc(C(=O)C2=C(C)C(=O)c3ccccc3C2=O)ccc1C(F)(F)F; test = parasite growth, SYBR Green; test system = Dd2; conditions = 72 h, synchronized ring stage; IC50 = 2990 ± 750 nM
Structure (SMILES) = N[C@@H](CCC(=O)N[C@@H](CCC(=O)N(O)c1ccc(Br)cc1)C(=O)NCC(=O)OC1CCCC1)C(=O)OC1CCCC1; test = parasite growth, imaging; test system = 3D7; conditions = 48 h, blood stage; IC50 = 30000 nM
Structure (SMILES) = CN(C(=O)c1ccn2ncc(-c3ccc(C(N)=O)cc3)c2c1)C1CCC(C#N)CC1 (stereo not drawn); test = parasite growth; test system = 3D7; IC50 = 1430 nM
Structure (SMILES) = N[C@@H](CCC(=O)N[C@@H](CCC(=O)N(O)c1ccc(Br)cc1)C(=O)NCC(=O)O)C(=O)O; test = blood-stage growth, Giemsa-stained smears; test system = 3D7; conditions = 48 h, asynchronous culture; IC50 = 70000 nM
Structure (SMILES) = O=C(C1CCN(c2nnnn2-c2ccc(F)cc2)CC1)N1CCCc2ccccc21; test = parasite growth, SYBR Green; test system = 3D7; conditions = 72 h, blood stage; IC50 = 4300 nM
Structure (SMILES) = C[N+]1=C2C=C(NCCc3c[nH]c4ccccc34)C(=O)c3[nH]cc(c32)CC1; test = parasite growth, SYBR Green; test system = 3D7; conditions = blood stage; IC50 = 9 nM
Structure (SMILES) = CNC(=O)c1ccc(-c2cnn3ccc(C(=O)Nc4ccc(C#N)cn4)cc23)cc1; test = parasite growth; test system = 3D7; IC50 = 521 nM
Structure (SMILES) = COc1cc(C)ccc1NC(=O)C1c2ccccc2CCN1C(=O)OC(C)(C)C (stereo not drawn); test = parasite growth, SYBR Green; test system = 3D7; conditions = 96 h, blood stage; IC50 = 32000 nM
Structure (SMILES) = O=C(Nc1ccccc1O)c1ccc(-c2ccc(Cl)cc2Cl)o1; test = parasite growth; test system = NF54; conditions = 72 h, blood stage; IC50 = 920 nM
Structure (SMILES) = N#Cc1c(-c2cccs2)[n+]([O-])c2ccc(Cl)cc2[n+]1[O-]; test = parasite growth, [3H]hypoxanthine incorporation; test system = 3D7 chloroquine-sensitive; IC50 = inactive
Structure (SMILES) = C1=CC(c2ccc[nH]2)=NC1=CNC1CCCCCCC1; test = parasite growth, SYBR Green I fluorescence; test system = D6, chloroquine-sensitive; IC50 = > 2500 nM
Structure (SMILES) = COc1ccc2c(c1)[n+]([O-])c(C#N)c(-c1cccs1)[n+]2[O-]; test = parasite growth, [3H]hypoxanthine incorporation; test system = 3D7 chloroquine-sensitive; IC50 = 800 ± 100 nM
Structure (SMILES) = C1=CC(c2ccc[nH]2)=NC1=CNC1CCCCCC1; test = parasite growth, SYBR Green I fluorescence; test system = D6, chloroquine-sensitive; IC50 = > 2500 nM
Structure (SMILES) = COc1ccc(-c2ccc(OC(C)C)c3c(OC)cccc23)c2c1C=NC(C)(C)C2; test = parasite growth, SYBR Green; test system = NF54; conditions = 96 h, blood stage; IC50 = 6090 nM
Structure (SMILES) = CCN(CC)c1ccc2nc3c4ccccc4/c(=N/c4ccncc4)cc-3oc2c1; test = parasite growth, [3H]hypoxanthine incorporation; test system = NF54; conditions = 72 h; IC50 = 0.0032 µg/mL
Structure (SMILES) = c1ccc2c(NCCNc3ncnc4cc(OCC5CCN(CCNc6ccnc7ccccc67)CC5)ccc34)cccc2c1; test = parasite growth; test system = NF54; conditions = blood stage; IC50 = 60 nM
Structure (SMILES) = CC(C)=CCC/C(C)=C/Cc1c(CCC(=O)c2ccc(O)cc2O)ccc(O)c1O; test = parasite growth, PfLDH; test system = 3D7 expressing yeast DHODH; IC50 = 11600 nM
Structure (SMILES) = Cc1c(-c2ccc[nH]2)c[nH]c1C=NC12CC3CC(CC(C3)C1)C2; test = parasite growth, SYBR Green I fluorescence; test system = D6, chloroquine-sensitive; IC50 = > 2500 nM
Structure (SMILES) = O=C(C1CCN(c2nnnn2-c2ccccc2)CC1)N1CCCc2cccnc21; test = parasite growth, SYBR Green; test system = 3D7; conditions = 72 h, blood stage; IC50 = 4400 nM
Structure (SMILES) = COC1C(C)C2C(C=CC3C(C)C=CC=CC(C)OC(=O)C(C)C(=O)C(Cl)(Cl)C(=O)C32)CC1(C)O (stereo not drawn); test = parasite growth, ELISA; test system = 3D7; conditions = blood stage; IC50 = > 11000 nM
Structure (SMILES) = CCNCC#CCNc1ccnc2cc(Cl)ccc12; test = parasite growth; test system = 3D7; conditions = blood stage; IC50 = 23 nM
Structure (SMILES) = CC(C)(C)OC(=O)CNC(=O)[C@H](CCC(=O)N(O)c1ccc(Br)cc1)NC(=O)NC[C@H](N)C(=O)OC(C)(C)C; test = parasite growth, imaging; test system = 3D7; conditions = 48 h, blood stage; IC50 = 30000 nM
Structure (SMILES) = CCC1=CC(c2ccc[nH]2)=NC1=CNC1CCCCCC1; test = parasite growth, SYBR Green I fluorescence; test system = D6, chloroquine-sensitive; IC50 = > 250 nM
Structure (SMILES) = C[C@@H](C[C@@H](O)[C@H](O)C(C)(C)O)[C@@H]1CC[C@]2(C)C3=CC[C@H]4C(C)(C)C(=O)CC[C@]4(C)[C@H]3CC[C@@]12C; test = [3H]hypoxanthine incorporation; test system = D6, chloroquine-sensitive; IC50 = 37600 ± 1400 nM
Structure (SMILES) = CCCCCCCCCC1CC2CCCC3CC(CCCCCCCCC)NC(=N1)N23 (stereo not drawn); test = parasite growth, plasmodial LDH; test system = W2 chloroquine-resistant; IC50 = 1760 nM
Structure (SMILES) = CCCCN1C(=O)c2ccc3c4c(ccc(c24)C1=O)C(=O)N(c1c2ccccc2nc2ccccc12)C3=O; test = parasite growth, SYBR Green; test system = 3D7; conditions = 72 h, blood stage; IC50 = 4200 nM
Structure (SMILES) = CC1=N[C@H](C)Cc2c(-c3ccc(C(F)(F)F)cc3)ccc(O)c21; test = parasite growth, SYBR Green; test system = NF54; conditions = 96 h, blood stage; IC50 = 4000 nM
Structure (SMILES) = COc1ccc2nc3cc(Cl)ccc3c(NCCN3CCN(C)CC3)c2c1; test = parasite growth, flow cytometry; test system = 3D7; conditions = 72 h; IC50 = 15.2 ± 5.97 nM
Structure (SMILES) = CC[C@H](C)[C@@H]1NC(=O)[C@H](CCCCN)NC(=O)[C@H](CCCCN)NC(=O)[C@H](Cc2ccc(O)cc2)NC(=O)[C@H](CC(C)C)NC(=O)[C@@H]2CCCN2C(=O)CNC(=O)CNC(=O)[C@@H](NC(=O)CN)CSSC[C@@H](C(=O)N[C@@H](CCC(=O)O)C(=O)N[C@@H](CO)C(N)=O)NC(=O)[C@H](CC(C)C)NC(=O)[C@H](CCCCN)NC(=O)[C@H](CCCCN)NC(=O)[C@H]([C@@H](C)CC)NC(=O)[C@H]([C@@H](C)CC)NC(=O)[C@H](CCCCN)NC(=O)[C@H](CCCCN)NC(=O)[C@H](Cc2ccc(O)cc2)NC(=O)[C@H](CC(C)C)NC(=O)[C@@H]2CCCN2C(=O)[C@H](C)NC(=O)CNC(=O)CNC(=O)[C@H](CO)NC(=O)CNC(=O)CNC(=O)[C@H](CO)NC(=O)[C@H](CCC(=O)O)NC(=O)[C@H](CC(C)C)NC(=O)[C@H](CC(C)C)NC(=O)[C@H](CCCCN)NC(=O)[C@H](CCCCN)NC(=O)[C@H]([C@@H](C)CC)NC1=O; test = parasite growth; test system = 3D7; conditions = 72 h, Albumax II medium, no serum; IC50 = 13600 ± 1700 nM
Structure (SMILES) = COc1ccccc1CNC(=O)CCn1c(=O)[nH]c2ccsc2c1=O; test = parasite growth; test system = NF54; conditions = 72 h, blood stage; IC50 = 140 nM
Structure (SMILES) = CC(=O)O[C@@H]1C[C@H]2C(C)(C)C(=O)C=C[C@]2(C)[C@H]2CC[C@]3(C)C(=CC[C@H]3C3=CC(O)OC3=O)[C@@]21C (stereo partly drawn); test = [3H]hypoxanthine incorporation; test system = D6, chloroquine-sensitive; IC50 = 2400 nM
Structure (SMILES) = CC(C)C1=CC(=CNC23CC4CC(CC(C4)C2)C3)N=C1c1ccc[nH]1; test = parasite growth, SYBR Green I fluorescence; test system = D6, chloroquine-sensitive; IC50 = 26 nM
Structure (SMILES) = N#Cc1cccc(-n2nnnc2N2CCC(C(=O)N3CCCc4ccccc43)CC2)c1; test = parasite growth, SYBR Green; test system = 3D7; conditions = 72 h, blood stage; IC50 = 1700 nM
Structure (SMILES) = Cn1c(N2CCN(S(=O)(=O)c3ccc(Cl)cc3)CC2)nc2ccccc21; test = parasite growth; test system = NF54; conditions = blood stage; IC50 = > 10000 nM
Structure (SMILES) = C[C@@H]1C(=O)O[C@@H](C)/C=C/C=C\[C@@H](C)[C@@H]2C=C[C@@H]3C[C@]4(C)O[C@@H]4[C@@H](C)[C@H]3[C@@H]2C(=O)C(Cl)(Cl)C1=O; test = parasite growth, ELISA; test system = 3D7; conditions = blood stage; IC50 = 100 nM
Structure (SMILES) = O=C1c2ccc3c4c(ccc(c24)C(=O)N1CCCn1ccnc1)C(=O)N(CCCn1ccnc1)C3=O; test = parasite growth, SYBR Green I; test system = 3D7, chloroquine-sensitive; conditions = 72 h; IC50 = 260 ± 6.01 nM
Structure (SMILES) = O=C(C1CCN(c2nnnn2-c2ccncc2)CC1)N1CCCc2ccccc21; test = parasite growth, SYBR Green; test system = 3D7; conditions = 72 h, blood stage; IC50 = 3700 nM
Structure (SMILES) = COC1=CC(c2ccc[nH]2)=NC12OC(C)CC1CCCCCCCc3ccc([nH]3)C12 (stereo not drawn); test = parasite growth; test system = D6; conditions = blood stage; IC50 = 2.3 nM
Structure (SMILES) = CN(C)CCNC(=O)/C=C/C(Cc1ccccc1)Nc1ccnc2cc(Cl)ccc12 (stereo not drawn); test = parasite growth, flow cytometry; test system = 3D7; conditions = 48 h, blood stage; IC50 = 29.6 nM
Structure (SMILES) = CC(C)C1=CC(=CNC2CCCCCCC2)N=C1c1ccc[nH]1; test = parasite growth, SYBR Green I fluorescence; test system = D6, chloroquine-sensitive; IC50 = 1080 nM
Structure (SMILES) = COc1ccc2c(c1)C1CC(C)(N2)c2c(C)nc3ccc(OC)cc3c21 (stereo not drawn); test = parasite growth, SYBR green I; test system = INDO; IC50 = 2470 ± 146 nM
Structure (SMILES) = CC1=N[C@H](C)Cc2c(-c3ccc4ccccc4c3)ccc(O)c21; test = parasite growth, SYBR Green; test system = NF54; conditions = 96 h, blood stage; IC50 = 740 nM
Structure (SMILES) = COC(=O)c1cc2c([nH]c3ccccc32)c(-c2ccc3c(c2)OCO3)n1; test = parasite growth; test system = 3D7; conditions = 48 h, blood stage; IC50 = 7.16 µg/mL
Structure (SMILES) = CC1=CC(=CNC2CCCCCCC2)N=C1c1ccc[nH]1; test = parasite growth, SYBR Green I fluorescence; test system = D6, chloroquine-sensitive; IC50 = 1380 nM
Structure (SMILES) = CC1(C)Cc2c(-c3cccc4ccccc34)ccc(O)c2C=N1; test = parasite growth, SYBR Green; test system = NF54; conditions = 96 h, blood stage; IC50 = 1630 nM

Some of these lines once more:
Structure (SMILES) = COc1ccccc1CNC(=O)CCn1c(=O)[nH]c2ccsc2c1=O; test = parasite growth; test system = NF54; conditions = 72 h, blood stage; IC50 = 140 nM
Structure (SMILES) = CC1=N[C@H](C)Cc2c(-c3ccc(C(F)(F)F)cc3)ccc(O)c21; test = parasite growth, SYBR Green; test system = NF54; conditions = 96 h, blood stage; IC50 = 4000 nM
Structure (SMILES) = C1=CC(c2ccc[nH]2)=NC1=CNC1CCCCCCC1; test = parasite growth, SYBR Green I fluorescence; test system = D6, chloroquine-sensitive; IC50 = > 2500 nM
Structure (SMILES) = CC1(C)Cc2c(-c3cccc4ccccc34)ccc(O)c2C=N1; test = parasite growth, SYBR Green; test system = NF54; conditions = 96 h, blood stage; IC50 = 1630 nM
